Measured values gathered from unrelated publications.
Every numbered part comes from another study and shows a few of its results, in no order. Substitutions count along the parent as printed.

Sample 1
Target: Ras GTPase-activating protein-binding protein 1, full length (G3BP1, Homo sapiens, UniProt Q13283)
Chain of UniProt Q13283 (whole entry, looked up): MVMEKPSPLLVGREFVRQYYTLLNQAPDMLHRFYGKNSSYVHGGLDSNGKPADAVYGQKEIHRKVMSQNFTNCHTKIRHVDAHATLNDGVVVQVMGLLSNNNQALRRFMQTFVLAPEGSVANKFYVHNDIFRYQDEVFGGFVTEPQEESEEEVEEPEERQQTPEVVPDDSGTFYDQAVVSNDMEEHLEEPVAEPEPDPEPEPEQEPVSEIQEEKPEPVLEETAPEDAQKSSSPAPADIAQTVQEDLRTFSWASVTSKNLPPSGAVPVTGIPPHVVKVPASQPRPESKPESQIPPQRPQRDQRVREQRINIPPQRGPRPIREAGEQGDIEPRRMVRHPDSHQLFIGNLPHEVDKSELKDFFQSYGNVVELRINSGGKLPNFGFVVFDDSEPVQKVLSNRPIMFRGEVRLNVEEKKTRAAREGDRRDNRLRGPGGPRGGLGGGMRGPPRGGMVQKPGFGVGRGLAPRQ
Technique: RNA Bind-n-Seq
Form: RNA
Medium: in vitro
Concentration: 200 nM
Setting: whole 134-nt RNA, ends assumed
Together with: 150 mM LiCl
Reference: input library
Direction: higher = stronger binding
Library: 7-deaza-guanosine replaces G
Strand | log2 enrichment
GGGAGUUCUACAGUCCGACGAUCUGGCGCUGUCCUGGACUUGAUGGGGGAUGAAGCCCAGAACCUGACGAGGGGCCGGCAGCAGCUCAAGUGGUGAGUGAUCGAGUGAGCCGCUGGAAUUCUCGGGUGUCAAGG | -0.556
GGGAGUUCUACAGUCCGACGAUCUCAAGUCCUGUGCUACACAUCGUAUGUACCGAAUCGGAGGUUUGGAAAAAAAGGAAAGUAUUAUGUUACGCCGUUCGGAUCUGCACUUCCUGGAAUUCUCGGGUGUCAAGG | -1.06
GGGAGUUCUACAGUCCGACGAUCAUUUCUCAGUUGAAGGAUGCUUACACUCUUGUCCAUCUAGACCUCAAUUACUGUUUUUCAGGAAUGUCUGAUCACAGAUACGGGGAUGGUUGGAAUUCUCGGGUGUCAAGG | -1.65
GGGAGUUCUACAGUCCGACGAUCCCUCAAGUCCUGUGCUACACAUCGUAUGUACCGAAUCGGGCGGCGGGGCGGGGAAAGUAUUAUGUUACGCCGUUCGGAUCUGCACUUCCAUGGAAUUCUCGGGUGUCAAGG | 0.00521
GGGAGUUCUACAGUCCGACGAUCGUCCUGUGCUACACAUCGUAUGUACCGAAUCAAAUUUUUUUAAACCCCCAAACCCAAAAAAGUAUUAUGUUACGCCGUUCGGAUCUGCACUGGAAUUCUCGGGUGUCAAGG | 1.01
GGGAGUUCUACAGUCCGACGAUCAGUCCUGUGCUACACAUCGUAUGUACCGAAUCGGGAAAAGGGAAAAGGGAAAAGGGGAAAGUAUUAUGUUACGCCGUUCGGAUCUGCACUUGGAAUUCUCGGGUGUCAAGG | -0.218
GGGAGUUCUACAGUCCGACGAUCUUCAGUUAUUCAAGCGGAGAAAUGUUGCUACAGCAGAAGAAGAAACAGAAGAAGAAGUUAUGUCAGAUGGAGGCUUUCAUGAGGCUCAGAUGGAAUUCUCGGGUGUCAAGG | -2.74
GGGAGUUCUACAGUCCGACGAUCUAACUUUAGAGGAGGAUCUGAUGGAAAUGGCAGUGGACGUGGAUUUGGGGAUGGCUAUAAUGGGUAUGGAGGAGGACCUGGAGGUGGCAAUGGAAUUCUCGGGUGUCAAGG | -0.277
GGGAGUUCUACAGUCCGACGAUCAGUCCUGUGCUACACAUCGUAUGUACCGAAUCGGGGUGGGGUGGGGAAAAAAAGGGGAAAGUAUUAUGUUACGCCGUUCGGAUCUGCACUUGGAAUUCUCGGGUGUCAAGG | 0.141
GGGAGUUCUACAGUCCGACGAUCUAACUUUAGAGGAGGAUCUGAUGGAUAUGGCAGUGGACGUGGAAUUGGGGAUGGCUAUAAUGGGUAUGGAGGAGGACCUGGAGGUGGCAAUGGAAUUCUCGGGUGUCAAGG | -0.51
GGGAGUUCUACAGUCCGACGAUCUAACUUUAGAGGAGGAUCUGAUGGAUAUGGCAGUGGACGUGGAUUUUGGGAUGGCUAUAAUGGGUAUGGAGGAGGACCUGGAGGUGGCAAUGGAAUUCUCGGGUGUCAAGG | -0.256

Sample 2
Target: Interferon regulatory factor 5, full length, phosphomimetic (IRF5, Homo sapiens, UniProt Q13568-2, residues 1-514, S451D/S453D/S456D/S462D)
Technique: protein-binding microarray
Form: double-stranded DNA, one strand shown
Medium: in vitro
Concentration: 940 nM top
Setting: 60-bp whole probe
Together with: salmon DNA 0.4 mg/ml
Reference: random background probes
Direction: higher = stronger binding
All sequences stand within: GCCTAGCAC … GTCTTGATTCGCTTGACGCTGCTG
Strand | fitted relative affinity [z-score]
AACTTTTTTTTTTCCCTGAAGTGCTAG | 1.2
TACTTTCTACTTCTCTTTTTGTGCTAG | 4.44
TCATTTTTTTTTTTTTGACTGTGCTAG | 1.06
GTCGGTTTCGACTATCGGGACGTGCTA | 9.62
TTAGAACTGGGGATTGGATTAGTGCTA | 0.146
TCATCTTTATGCACTCTCACTGTGCTA | 1.71
GACGGTTTCCTATTGCTGACGTGCTAG | 1.35
GACGACATCGGGTATCGAGACGTGCTA | 0.93
GACGGACTACTTATCCTGACGTGCTAG | -0.38
TTAGGTATCGGGTATCGGTTCGTGCTA | 7.18
GACGGACTGCTACTGCTGTCGTGCTAG | -0.3
TTAGGTTTCGGGTTTAGGTTAGTGCTA | 9.84
TTAGATATCAGGCTGGATTAGTGCTAG | -0.0539
TAAAATTTTGCTTCTAGAACGTGCTAG | -0.138
GACGATATCACACTGGAGACGTGCTAG | -0.149
TGAGGTCTCCTTATCCTTTAGTGCTAG | 0.22
GCGATCCTCTCACCTCAGCCTGTGCTA | 0.804
GACGGTTTCGGGTCTGGGGACGTGCTA | 8.83
ATGACTCTGCCTCTAACTGCGTGCTAG | -0.109

Sample 3
Target: CCNA1, cyclin fold, Cln2 fusion (human)
Technique: yeast growth competition, sequencing
Medium: yeast
Setting: weak parent motif
Reference: not given
Direction: higher = stronger binding
Starting sequence: PKMYT1 docking peptide (human); SFEPRNLLSLFED; partner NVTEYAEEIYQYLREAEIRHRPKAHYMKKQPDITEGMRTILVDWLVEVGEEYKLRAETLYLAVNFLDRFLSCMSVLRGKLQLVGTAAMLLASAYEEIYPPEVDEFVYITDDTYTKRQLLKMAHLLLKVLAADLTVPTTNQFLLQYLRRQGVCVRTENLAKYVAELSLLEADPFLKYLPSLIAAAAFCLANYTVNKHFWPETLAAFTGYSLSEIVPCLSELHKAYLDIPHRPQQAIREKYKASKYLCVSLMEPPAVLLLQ
Substitution | normalised enrichment score
P4T | 0.327
S1A | 0.149
L7A | 0.386
N6T | 0.127
N6C | 0.452
F2W | -0.118
F11C | 0.159
F11H | 0.389
F2G | 0.198
E3G | -0.146
P4C | 0.13
L8C | 0.278
N6I | 0.326
R5F | 0.166
L10F | 0.0831
R5D | 0.173
L10E | 0.459
L10C | 0.21
L7S | 0.21
N6R | 0.368
L8S | 0.0151
L7T | 0.393
S9Q | 0.188
D13T | -0.0945
S1D | 0.143

Sample 4
Target: JUN, bZIP domain (human)
Technique: DHFR protein complementation
Medium: yeast
Setting: single substitutions, most at no-binding floor
Reference: wild-type JUN-FOS pair
Direction: higher = stronger binding
Starting sequence: JUN, bZIP domain (human); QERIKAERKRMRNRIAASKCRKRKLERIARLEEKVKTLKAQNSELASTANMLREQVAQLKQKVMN; partner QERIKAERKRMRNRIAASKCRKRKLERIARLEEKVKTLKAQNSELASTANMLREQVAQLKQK
Substitution | binding fitness
R30L | -0.205 natural log
S47H | -0.129 natural log
T37C | -0.209 natural log
E44H | -0.354 natural log
R30S | -0.137 natural log
Q55R | -0.642 natural log
E32M | -0.51 natural log
A29C | -0.553 natural log
V56K | -1.06 natural log
E32S | -0.664 natural log
E33V | -0.693 natural log
R30I | -0.311 natural log
K34N | -0.367 natural log
I28G | -1.01 natural log

Sample 5
Target: Prothrombin, mature alpha-thrombin (F2, Homo sapiens, UniProt P00734)
Technique: aptamer microarray, sandwich
Form: DNA with 2'F-ANA
Medium: in vitro
Concentration: 200 nM
Setting: whole 15-mer aptamer, many near background
Together with: Cy3 exosite-II aptamer, 400 nM
Direction: higher = stronger binding
Strand: GGTTGGTGTGGTTGG
Modification | mean fluorescence intensity [a.u.]
2'F-ANA at 3 4 6 8 9 12 13 | 633
2'F-ANA at 2 3 5 6 7 10 13 14 15 | 45.1
2'F-ANA at 1 2 4 7 10 11 12 13 | 58.3
2'F-ANA at 3 4 10 12 14 15 | 207
2'F-ANA at 3 4 5 6 9 10 14 | 49.8
2'F-ANA at 1 4 7 9 11 12 13 | 142
2'F-ANA at 2 6 7 11 | 315
2'F-ANA at 1 5 7 8 12 13 14 | 48.1
2'F-ANA at 1 3 5 7 8 9 11 12 14 15 | 58.9
2'F-ANA at 3 5 6 7 9 11 13 14 | 71.6
2'F-ANA at 1 2 4 7 8 11 | 127
2'F-ANA at 1 2 4 5 7 8 9 10 12 13 14 | 47.2
2'F-ANA at 1 3 4 8 9 11 12 13 14 15 | 68.9
2'F-ANA at 1 3 8 9 10 12 14 15 | 107
2'F-ANA at 1 2 4 7 11 13 | 79.4
2'F-ANA at 2 4 5 6 10 13 15 | 48
2'F-ANA at 2 4 6 7 8 9 10 14 15 | 77.2
2'F-ANA at 1 2 4 7 14 | 61.7
2'F-ANA at 1 2 3 4 6 8 12 13 14 15 | 74.6
2'F-ANA at 1 4 10 12 14 | 94.8
2'F-ANA at 4 5 6 8 9 10 13 14 15 | 110
2'F-ANA at 2 3 4 6 8 12 13 14 15 | 252
2'F-ANA at 4 5 6 7 8 11 12 14 | 48.1
2'F-ANA at 1 2 4 6 8 13 | 85.5
2'F-ANA at 2 5 7 10 12 13 | 94.2

Sample 6
Target: Probable WRKY transcription factor 11, DNA-binding domain (WRKY11, Arabidopsis thaliana, UniProt Q9SV15, residues 228-325)
Technique: DNA-protein interaction ELISA
Form: double-stranded DNA, one strand shown
Medium: in vitro, bacterial lysate
Concentration: not given
Setting: whole dsDNA probe, crude lysate protein
Reference: highest signal in screen
Direction: higher = stronger binding
Target sequence (chain): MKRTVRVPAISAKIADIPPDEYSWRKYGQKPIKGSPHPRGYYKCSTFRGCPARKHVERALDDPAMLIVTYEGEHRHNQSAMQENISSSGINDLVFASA
Strand | relative absorbance
AAAAAATATCCTATTCTAATTTATATAAAA | 13.5 % of maximum
AAAAAAGCCCCTTGCGCCTCTCTACCAAAA | 17 % of maximum
AAAAAAGTCTCACCTTTAGTCTTAATAAAA | 19 % of maximum
AAAAAACGTTAACACTGATTTAGGGTAAAA | 15.6 % of maximum
AAAAAACTACTACCTTTGCCTAAGCGAAAA | 17.9 % of maximum
AAAAAAGGAAGTACTGACGATCTGGAAAAA | 14.7 % of maximum
AAAAAATATGGCACTCGCCGCACATCAAAA | 17.9 % of maximum
AAAAAAGTTGCCGACGATTGCGGGTTAAAA | 17.9 % of maximum
AAAAAATTCGTTTTTCGTCTTTCATTAAAA | 17 % of maximum
AAAAAAATGATTTGCAGATCTCCGAGAAAA | 17 % of maximum
AAAAAAGGTAATGCCGGTCCCAGTATAAAA | 13.5 % of maximum
AAAAAACTGACCGTCAGCGCCCACGCAAAA | 33.1 % of maximum
AAAAAATGTGCCCGTGTGTGCTCGCGAAAA | 19.3 % of maximum
AAAAAAATCCATATTATTGCTACCCGAAAA | 15.8 % of maximum
AAAAAACCAGCCTCAGTCCTGAACAAAAAA | 16.1 % of maximum
AAAAAACGGAAGATCGTGACTGCTAGAAAA | 19.9 % of maximum
AAAAAAAGTGGCCGCTAGTCAACTCAAAAA | 91.9 % of maximum
